Measured values from different studies.
Each numbered part is a random draw from the data of one study; scales do not carry over between parts. Several values in a cell are separate wells, animals, samples, runs or records.
Sequence of UniProt Q8NE63 (whole entry, looked up): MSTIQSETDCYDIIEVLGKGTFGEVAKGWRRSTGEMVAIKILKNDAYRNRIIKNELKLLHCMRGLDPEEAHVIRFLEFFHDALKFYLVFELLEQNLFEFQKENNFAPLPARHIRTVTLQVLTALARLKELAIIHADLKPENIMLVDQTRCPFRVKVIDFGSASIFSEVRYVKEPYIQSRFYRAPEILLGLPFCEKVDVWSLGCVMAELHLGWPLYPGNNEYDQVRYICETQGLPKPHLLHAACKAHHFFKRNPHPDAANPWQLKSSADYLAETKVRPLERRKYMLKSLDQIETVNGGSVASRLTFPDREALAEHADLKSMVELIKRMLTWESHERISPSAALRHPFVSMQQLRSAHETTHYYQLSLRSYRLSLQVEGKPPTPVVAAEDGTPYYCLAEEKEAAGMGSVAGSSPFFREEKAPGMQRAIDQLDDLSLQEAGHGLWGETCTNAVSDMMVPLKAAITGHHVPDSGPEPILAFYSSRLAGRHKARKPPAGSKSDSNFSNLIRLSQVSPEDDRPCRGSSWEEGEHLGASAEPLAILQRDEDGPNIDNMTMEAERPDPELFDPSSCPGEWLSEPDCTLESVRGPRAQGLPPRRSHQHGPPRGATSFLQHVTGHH
Sequence of UniProt P42336 (whole entry, unmodified, looked up): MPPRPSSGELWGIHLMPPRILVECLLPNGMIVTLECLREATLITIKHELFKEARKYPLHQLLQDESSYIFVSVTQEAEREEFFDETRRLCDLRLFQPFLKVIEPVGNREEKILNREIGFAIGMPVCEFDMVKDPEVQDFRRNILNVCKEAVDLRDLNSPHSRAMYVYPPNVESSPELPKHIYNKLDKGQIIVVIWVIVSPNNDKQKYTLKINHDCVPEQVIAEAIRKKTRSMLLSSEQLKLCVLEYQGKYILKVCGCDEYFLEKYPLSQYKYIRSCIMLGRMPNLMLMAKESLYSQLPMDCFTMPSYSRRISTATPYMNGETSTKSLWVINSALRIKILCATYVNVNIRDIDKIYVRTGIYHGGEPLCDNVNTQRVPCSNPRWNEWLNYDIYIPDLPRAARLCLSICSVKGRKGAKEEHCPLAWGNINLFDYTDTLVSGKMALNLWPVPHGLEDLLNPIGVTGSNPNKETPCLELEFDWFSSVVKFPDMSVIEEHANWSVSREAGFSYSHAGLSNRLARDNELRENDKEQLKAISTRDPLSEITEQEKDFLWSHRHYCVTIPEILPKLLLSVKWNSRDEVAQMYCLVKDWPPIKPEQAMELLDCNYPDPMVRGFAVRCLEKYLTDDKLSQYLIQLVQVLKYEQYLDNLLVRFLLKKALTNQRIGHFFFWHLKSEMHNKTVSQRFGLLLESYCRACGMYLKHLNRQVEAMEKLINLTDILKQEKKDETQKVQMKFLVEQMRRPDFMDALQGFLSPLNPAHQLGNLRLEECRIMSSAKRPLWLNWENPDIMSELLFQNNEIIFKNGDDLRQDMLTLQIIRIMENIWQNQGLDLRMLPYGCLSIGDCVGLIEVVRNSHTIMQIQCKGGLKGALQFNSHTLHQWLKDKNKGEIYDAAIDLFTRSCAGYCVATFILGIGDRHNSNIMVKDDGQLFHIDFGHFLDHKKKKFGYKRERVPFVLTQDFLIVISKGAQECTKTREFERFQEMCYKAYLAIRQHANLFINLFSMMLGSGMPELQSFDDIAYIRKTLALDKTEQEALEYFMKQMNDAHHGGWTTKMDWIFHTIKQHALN
Sequence of UniProt O75716 (whole entry, looked up): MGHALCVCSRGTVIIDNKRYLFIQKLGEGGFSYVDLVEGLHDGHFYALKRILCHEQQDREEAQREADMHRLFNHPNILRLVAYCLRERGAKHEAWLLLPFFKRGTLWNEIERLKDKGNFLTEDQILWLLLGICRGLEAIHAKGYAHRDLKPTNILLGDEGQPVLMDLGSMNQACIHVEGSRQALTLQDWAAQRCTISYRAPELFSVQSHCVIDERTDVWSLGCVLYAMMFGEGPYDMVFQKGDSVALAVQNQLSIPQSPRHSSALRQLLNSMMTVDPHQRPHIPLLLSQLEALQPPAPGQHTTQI
Sequence of UniProt Q9UBF8 (whole entry, looked up): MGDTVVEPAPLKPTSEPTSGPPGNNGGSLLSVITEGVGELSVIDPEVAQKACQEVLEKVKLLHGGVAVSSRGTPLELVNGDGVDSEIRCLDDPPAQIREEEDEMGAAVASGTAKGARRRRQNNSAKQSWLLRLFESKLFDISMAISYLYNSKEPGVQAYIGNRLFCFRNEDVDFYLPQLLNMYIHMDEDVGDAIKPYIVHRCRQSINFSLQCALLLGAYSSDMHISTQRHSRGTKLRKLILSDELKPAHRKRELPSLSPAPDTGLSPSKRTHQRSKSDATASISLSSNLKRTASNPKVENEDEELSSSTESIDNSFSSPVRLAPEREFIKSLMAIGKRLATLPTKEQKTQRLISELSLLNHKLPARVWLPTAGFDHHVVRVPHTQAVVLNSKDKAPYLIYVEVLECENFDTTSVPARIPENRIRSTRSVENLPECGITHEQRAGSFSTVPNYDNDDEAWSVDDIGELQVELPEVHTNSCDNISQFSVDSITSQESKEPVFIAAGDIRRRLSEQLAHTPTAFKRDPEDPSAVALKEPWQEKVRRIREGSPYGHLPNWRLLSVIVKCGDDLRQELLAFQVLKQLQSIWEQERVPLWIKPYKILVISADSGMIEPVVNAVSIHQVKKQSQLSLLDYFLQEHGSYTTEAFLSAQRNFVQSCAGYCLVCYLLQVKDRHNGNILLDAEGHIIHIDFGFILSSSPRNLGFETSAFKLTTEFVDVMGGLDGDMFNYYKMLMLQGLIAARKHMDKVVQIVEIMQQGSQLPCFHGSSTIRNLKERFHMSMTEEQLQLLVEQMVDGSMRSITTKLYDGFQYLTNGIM

Block 1
Species: human
Matrix: microsomes or S9
Concentration: 2 µM
Time: 0.5 h
SMILES	remaining compound [%]
Cc1onc(-c2ccccc2)c1C(=O)Nc1ccon1	74.9
N#Cc1nccnc1OC1CCN(C(=O)C2CC(=O)N(C3CCOCC3)C2)C1 (stereo not drawn)	87.8
Cc1cnn(CC2CN(c3nccn4nc(C)cc34)CCO2)c1 (stereo not drawn)	82.7

Block 2
Structure (SMILES): c1ccc(Oc2ccc(Nc3c4c(nc5ccccc35)CCC4)cc2)cc1
cell line	method	concentration	time	setting	cytotoxicity
HEK293	resazurin	33.32 µM	–	10% serum	96% and 89%
PMA-differentiated THP-1 macrophages	–	0.8 µM	64 h	–	4% and 1%
HEK293	resazurin	16.66 µM	–	10% serum	74% and 79%

Block 3
Structure (SMILES): C=CC(=O)N1CCC([C@@H]2CCNc3c(C(N)=O)c(-c4ccc(Oc5ccccc5)cc4)nn32)CC1
Observed: enzyme activity
Mode: inhibitor
Concentration: 1 µM
target	inhibition
PI4KB (Homo sapiens, UniProt Q9UBF8)	0%
PIK3CA (Homo sapiens, UniProt P42336, Q546K)	36%
STK16 (Homo sapiens, UniProt O75716)	9%
HIPK4 (Homo sapiens, UniProt Q8NE63)	2%

Block 4
Cell line: mouse MPNST tumor cells
Method: high-content immunofluorescence imaging
Measured: nuclear SOX9
Concentration: 10 µM
Time: 12 h
Setting: mean of 2 replicates
Reference: DMSO control
Reading: higher = more nuclear SOX9
SMILES	nuclear SOX9 intensity
CC(=O)O[C@@]12CO[C@@H]1C[C@H](O)[C@@]1(C)C(=O)[C@H](O)C3=C(C)[C@@H](OC(=O)[C@H](O)[C@@H](NC(=O)OC(C)(C)C)c4ccccc4)C[C@@](O)([C@@H](OC(=O)c4ccccc4)[C@H]21)C3(C)C	144 % of DMSO and 163 % of DMSO and 123 % of DMSO
CCS(=O)(=O)Nc1ccc2[nH]c(O)c(C(=Nc3ccc(CN4CCCCC4)cc3)c3ccccc3)c2c1	96.6 % of DMSO
O=C(O)P(=O)(O)O	98.1 % of DMSO

Block 5
Cell line: UACC-903 melanoma
Compound	IC50 [µM]
CN(C)CCC=C1c2ccccc2CCc2ccccc21	27.3
OCCN1CCN(CCCN2c3ccccc3Sc3ccc(Cl)cc32)CC1	9.7
CN1CCN(CCCN2c3ccccc3Sc3ccc(C(F)(F)F)cc32)CC1	10.2
CCOC(=O)C1=C(COCCN)NC(C)=C(C(=O)OC)C1c1ccccc1Cl (stereo not drawn)	11.9

Block 6
Target: Alpha-2A adrenergic receptor (ADRA2A, Homo sapiens, UniProt P08913)
Sequence of UniProt P08913 (whole entry, looked up): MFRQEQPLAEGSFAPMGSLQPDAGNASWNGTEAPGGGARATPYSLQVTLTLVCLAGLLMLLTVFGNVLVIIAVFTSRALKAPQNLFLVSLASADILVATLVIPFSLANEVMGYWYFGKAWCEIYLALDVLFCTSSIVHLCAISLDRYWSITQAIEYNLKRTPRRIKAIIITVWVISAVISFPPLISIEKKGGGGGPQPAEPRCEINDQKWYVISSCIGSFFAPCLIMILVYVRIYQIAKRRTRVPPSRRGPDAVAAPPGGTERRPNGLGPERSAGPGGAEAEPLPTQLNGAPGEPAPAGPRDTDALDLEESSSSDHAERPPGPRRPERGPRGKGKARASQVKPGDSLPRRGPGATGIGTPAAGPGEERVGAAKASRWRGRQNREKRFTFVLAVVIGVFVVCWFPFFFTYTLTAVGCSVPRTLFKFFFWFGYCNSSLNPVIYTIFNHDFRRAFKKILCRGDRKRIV
Observed: binding
Method: radioligand binding
Concentration: 10 µM
SMILES	inhibition [%]
CC1=C(C#N)C(c2ccc3c(c2)c(NC(=O)c2ccccc2C)nn3C)C(C#N)=C(C)N1	14.4
CCCOc1ccc([C@H]2[C@H](C(=O)O)[C@@H](c3ccc4c(c3)OCO4)CN2CC(=O)Nc2c(CC)cccc2CC)cc1	9.55
O=C(Nc1cccnn1)N1CC(CC=Cc2cncc(Oc3ccc(C(F)(F)F)cn3)n2)C1	0.68
C[C@H](NC(=O)c1cnc2n1[C@](C)(Cc1ccc(C#N)cc1)C(=O)N2c1cc(Cl)c(F)c(Cl)c1)C(=O)NC1(c2ccccn2)CC1	-16.7
O=C([C@H]1C[C@H](O)CN1c1ccc(Cl)cc1)N1CC2COCC(C1)N2Cc1ccc(Cl)cc1	11.3
CC(C)CC(=O)N1CCc2nc(-c3ccc(Br)cc3)nc(N(C)Cc3ccccc3)c2C1	48.4
Nc1c(C(=O)NCc2ccc(C(=O)NCCCC3CCCCC3)cc2)cnn1-c1ccccc1	4.08
O=C1CCc2cc(Nc3cc(OC4CCOCC4)c([N+](=O)[O-])cc3Cl)ccc2N1	4.66
O=C(Nc1cccnn1)N1CCC(=Cc2cccc(Oc3ccc(C(F)(F)F)cn3)c2)CC1	34.5
CC(=O)N1CCC(c2ccc(C(=O)NC(=N)N)cc2C(F)(F)F)CC1	-0.34
Cc1cc(C)c(-n2ccn3nc(-c4cccnc4)cc23)cc1NC(=O)c1cc(C#N)cc(S(F)(F)(F)(F)F)c1	11.1
O=C(Nc1ccc(-n2nc(-c3cccnc3)cc2C(F)(F)F)cn1)c1ccc(-c2ccccc2)c(F)c1	8.3
CCOCCn1cc(C(=O)Nc2ccc(-n3nc(-c4cccnc4)cc3C(F)(F)F)cn2)ccc1=O	-1.74
CCOC(=O)c1cc2cc(-c3cc(C(=O)NCc4ccc(C(=O)O)cc4)nn3C)ccc2[nH]1	12.3
CC(=O)c1c(NS(C)(=O)=O)c2cc(-c3ccc(Cl)cc3)c(-c3ccc(Cl)cc3Cl)nc2n(C)c1=O	19.8
Cc1c(N2CCCC2)nc2ccc(Br)cc2c1C(=O)NC[C@H](CCC(=O)O)c1ccccc1Cl	-4.59

Repeated from above (block 3):
target	inhibition
PI4KB (Homo sapiens, UniProt Q9UBF8)	0%
HIPK4 (Homo sapiens, UniProt Q8NE63)	2%
STK16 (Homo sapiens, UniProt O75716)	9%
PIK3CA (Homo sapiens, UniProt P42336, Q546K)	36%
